# Published values gathered from unrelated publications.
# A part holds a random share of what one study measured.

# Block 1
# Target: Histone acetyltransferase KAT6A, both winged helices, GST fusion (KAT6A, Homo sapiens, UniProt Q92794, residues 1-181)
# Technique: protein binding microarray
# Molecule type: double-stranded DNA, one strand shown
# Matrix: in vitro
# Concentration: not given
# Setting: 8-mer, flanks averaged, mean of 2 arrays, mostly near background
# Relative to: not given
# Direction: higher = stronger binding
# Construct (chain): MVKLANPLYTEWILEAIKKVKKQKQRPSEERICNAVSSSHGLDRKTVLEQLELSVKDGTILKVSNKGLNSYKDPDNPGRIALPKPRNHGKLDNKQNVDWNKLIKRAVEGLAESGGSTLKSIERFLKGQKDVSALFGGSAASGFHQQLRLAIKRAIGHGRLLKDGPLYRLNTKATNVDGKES
Oligonucleotide,E-score
AGTTCGAC,-0.061
AACACGGT,0.111
CGAATCTA,0.00231
AGCGGGAG,0.18
ACTAGTCC,0.0215
AGCCGATG,0.0645

# Block 2
# Target: Interferon regulatory factor 7, full length, phosphomimetic (IRF7, Homo sapiens, UniProt Q92985, residues 1-503, S471D/S472D/S475D/S476D/S477D/S483D/S484D/S487D)
# UniProt Q92985, sequence (whole entry, unmodified, looked up): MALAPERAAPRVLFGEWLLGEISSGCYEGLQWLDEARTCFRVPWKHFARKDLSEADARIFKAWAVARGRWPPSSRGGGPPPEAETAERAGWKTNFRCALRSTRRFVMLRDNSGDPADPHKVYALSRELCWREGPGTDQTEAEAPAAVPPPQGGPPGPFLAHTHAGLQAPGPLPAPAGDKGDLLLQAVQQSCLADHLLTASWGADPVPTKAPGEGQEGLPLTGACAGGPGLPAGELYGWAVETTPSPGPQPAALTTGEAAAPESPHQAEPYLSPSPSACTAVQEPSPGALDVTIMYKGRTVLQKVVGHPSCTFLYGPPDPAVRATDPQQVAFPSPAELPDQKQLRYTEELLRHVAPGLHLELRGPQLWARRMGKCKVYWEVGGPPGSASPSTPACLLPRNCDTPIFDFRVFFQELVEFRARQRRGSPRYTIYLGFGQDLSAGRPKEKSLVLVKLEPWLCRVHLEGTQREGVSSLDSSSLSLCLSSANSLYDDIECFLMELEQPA
# Technique: protein-binding microarray
# Molecule type: double-stranded DNA, one strand shown
# Matrix: in vitro
# Concentration: 2200 nM top
# Setting: 60-bp whole probe
# With: salmon DNA 0.4 mg/ml
# Relative to: random background probes
# Direction: higher = stronger binding
# Constant ends, left off below: GCCTAGCAC … GTCTTGATTCGCTTGACGCTGCTG
Oligonucleotide,fitted relative affinity
GTCGGTTCCCTTTTCCTGACGTGCTAG,3.66 z-score
TTAGATAACAGTATCGATTAGTGCTAG,-0.0504 z-score
TCAATTTTCATTTTCCAACTGTGCTAG,6.02 z-score
GTAGATATCAGACTGGATTAGTGCTAG,-0.0628 z-score
TTTCCTTTATGTCCTGTCTAGTGCTAG,4.74 z-score
GACGAACTGGGGATTGGAGACGTGCTA,0.00885 z-score

# Block 3
# Target: Sal-like protein 4, full length isoform A (SALL4, Homo sapiens, UniProt Q9UJQ4, residues 1-1053)
# UniProt Q9UJQ4, sequence (whole entry, looked up): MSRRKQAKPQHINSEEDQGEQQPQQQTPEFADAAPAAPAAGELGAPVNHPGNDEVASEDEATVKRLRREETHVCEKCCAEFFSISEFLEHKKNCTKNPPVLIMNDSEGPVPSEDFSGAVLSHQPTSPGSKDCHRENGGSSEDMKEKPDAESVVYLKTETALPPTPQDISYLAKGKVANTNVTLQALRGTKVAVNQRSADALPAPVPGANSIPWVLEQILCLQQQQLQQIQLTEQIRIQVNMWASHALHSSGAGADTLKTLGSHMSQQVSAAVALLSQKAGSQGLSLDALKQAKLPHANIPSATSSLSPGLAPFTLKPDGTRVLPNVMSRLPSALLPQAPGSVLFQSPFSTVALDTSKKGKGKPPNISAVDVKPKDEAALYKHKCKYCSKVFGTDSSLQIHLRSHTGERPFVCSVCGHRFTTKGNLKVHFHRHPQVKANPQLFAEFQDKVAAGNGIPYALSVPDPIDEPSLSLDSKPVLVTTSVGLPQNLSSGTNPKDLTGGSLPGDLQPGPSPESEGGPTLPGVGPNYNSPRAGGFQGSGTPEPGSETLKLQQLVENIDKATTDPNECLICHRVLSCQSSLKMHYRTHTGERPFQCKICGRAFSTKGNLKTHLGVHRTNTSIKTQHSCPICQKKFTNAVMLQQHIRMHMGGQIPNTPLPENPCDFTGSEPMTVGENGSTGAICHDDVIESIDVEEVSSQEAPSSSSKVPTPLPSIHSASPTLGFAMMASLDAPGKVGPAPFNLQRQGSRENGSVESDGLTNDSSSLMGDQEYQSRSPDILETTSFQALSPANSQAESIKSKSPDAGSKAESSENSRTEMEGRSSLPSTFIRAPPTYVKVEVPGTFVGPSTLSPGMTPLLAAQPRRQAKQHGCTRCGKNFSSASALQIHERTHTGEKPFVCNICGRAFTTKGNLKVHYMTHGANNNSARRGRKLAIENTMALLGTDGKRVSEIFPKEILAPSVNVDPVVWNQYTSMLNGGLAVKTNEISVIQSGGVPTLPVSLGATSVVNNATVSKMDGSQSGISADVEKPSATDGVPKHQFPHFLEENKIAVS
# Technique: universal PBM
# Molecule type: double-stranded DNA, one strand shown
# Matrix: in vitro
# Concentration: 600 nM
# Setting: 8-mer, flanks averaged, mean of replicates
# Direction: higher = stronger binding
Oligonucleotide,E-score
ACGGATCC,-0.307
CACTGAAG,-0.0128
AAATTTGC,0.22
AGCTAGGG,-0.154
CCAGGACA,-0.134
AGTAGGGG,-0.114

# Other studies, line by line
Molecule,target,test,test system,setting,how to read,measurement,value
"PhoQ, residues 284 288 289 292 302 303 TNASYF","PhoP, residues 12 14 15 18 19 HLGGL (Escherichia coli, UniProt P23836)","Sort-seq, item: YFP reporter",E. coli,"PhoQ-PhoP variant library, with: 10 µM Mg2+","relative to: high Mg2+ state, higher = stronger signaling",fold induction,2.21

# A few entries again (block 1):
Oligonucleotide,E-score
CGAATCTA,0.00231
